Measured values pooled from the literature.
Parts stem from different laboratories: compare values within a part only. Several values in a cell are separate wells, animals, samples, runs or records.
Chain of UniProt P19784 (whole entry, looked up): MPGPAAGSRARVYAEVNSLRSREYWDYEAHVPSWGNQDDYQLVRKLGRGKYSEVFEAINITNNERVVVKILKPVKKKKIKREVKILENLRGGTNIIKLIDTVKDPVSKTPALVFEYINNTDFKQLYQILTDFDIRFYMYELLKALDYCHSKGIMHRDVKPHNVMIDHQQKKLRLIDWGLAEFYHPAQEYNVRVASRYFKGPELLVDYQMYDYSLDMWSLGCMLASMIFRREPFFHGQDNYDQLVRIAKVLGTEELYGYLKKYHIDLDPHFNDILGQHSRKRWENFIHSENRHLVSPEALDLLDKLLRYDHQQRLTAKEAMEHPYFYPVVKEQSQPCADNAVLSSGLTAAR
Chain of UniProt P51617 (whole entry, looked up): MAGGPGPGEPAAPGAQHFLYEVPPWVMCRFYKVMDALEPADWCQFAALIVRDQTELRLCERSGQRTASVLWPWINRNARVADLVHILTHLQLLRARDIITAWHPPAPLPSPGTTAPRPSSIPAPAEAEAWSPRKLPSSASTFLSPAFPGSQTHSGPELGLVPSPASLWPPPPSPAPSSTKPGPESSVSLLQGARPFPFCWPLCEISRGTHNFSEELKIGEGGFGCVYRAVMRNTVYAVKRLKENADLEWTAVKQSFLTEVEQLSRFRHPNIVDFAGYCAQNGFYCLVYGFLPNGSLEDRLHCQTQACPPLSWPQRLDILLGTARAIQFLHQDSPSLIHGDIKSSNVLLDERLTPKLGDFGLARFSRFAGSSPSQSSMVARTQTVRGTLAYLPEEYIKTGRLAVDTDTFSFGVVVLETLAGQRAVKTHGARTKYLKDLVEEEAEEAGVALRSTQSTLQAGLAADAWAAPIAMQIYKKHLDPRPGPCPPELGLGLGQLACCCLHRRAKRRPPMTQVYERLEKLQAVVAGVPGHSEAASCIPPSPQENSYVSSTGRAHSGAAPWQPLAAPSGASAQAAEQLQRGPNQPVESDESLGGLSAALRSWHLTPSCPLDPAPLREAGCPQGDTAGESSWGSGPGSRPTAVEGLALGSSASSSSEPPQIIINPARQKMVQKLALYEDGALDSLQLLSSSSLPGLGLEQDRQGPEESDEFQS
Chain of UniProt Q86Z02 (whole entry, looked up): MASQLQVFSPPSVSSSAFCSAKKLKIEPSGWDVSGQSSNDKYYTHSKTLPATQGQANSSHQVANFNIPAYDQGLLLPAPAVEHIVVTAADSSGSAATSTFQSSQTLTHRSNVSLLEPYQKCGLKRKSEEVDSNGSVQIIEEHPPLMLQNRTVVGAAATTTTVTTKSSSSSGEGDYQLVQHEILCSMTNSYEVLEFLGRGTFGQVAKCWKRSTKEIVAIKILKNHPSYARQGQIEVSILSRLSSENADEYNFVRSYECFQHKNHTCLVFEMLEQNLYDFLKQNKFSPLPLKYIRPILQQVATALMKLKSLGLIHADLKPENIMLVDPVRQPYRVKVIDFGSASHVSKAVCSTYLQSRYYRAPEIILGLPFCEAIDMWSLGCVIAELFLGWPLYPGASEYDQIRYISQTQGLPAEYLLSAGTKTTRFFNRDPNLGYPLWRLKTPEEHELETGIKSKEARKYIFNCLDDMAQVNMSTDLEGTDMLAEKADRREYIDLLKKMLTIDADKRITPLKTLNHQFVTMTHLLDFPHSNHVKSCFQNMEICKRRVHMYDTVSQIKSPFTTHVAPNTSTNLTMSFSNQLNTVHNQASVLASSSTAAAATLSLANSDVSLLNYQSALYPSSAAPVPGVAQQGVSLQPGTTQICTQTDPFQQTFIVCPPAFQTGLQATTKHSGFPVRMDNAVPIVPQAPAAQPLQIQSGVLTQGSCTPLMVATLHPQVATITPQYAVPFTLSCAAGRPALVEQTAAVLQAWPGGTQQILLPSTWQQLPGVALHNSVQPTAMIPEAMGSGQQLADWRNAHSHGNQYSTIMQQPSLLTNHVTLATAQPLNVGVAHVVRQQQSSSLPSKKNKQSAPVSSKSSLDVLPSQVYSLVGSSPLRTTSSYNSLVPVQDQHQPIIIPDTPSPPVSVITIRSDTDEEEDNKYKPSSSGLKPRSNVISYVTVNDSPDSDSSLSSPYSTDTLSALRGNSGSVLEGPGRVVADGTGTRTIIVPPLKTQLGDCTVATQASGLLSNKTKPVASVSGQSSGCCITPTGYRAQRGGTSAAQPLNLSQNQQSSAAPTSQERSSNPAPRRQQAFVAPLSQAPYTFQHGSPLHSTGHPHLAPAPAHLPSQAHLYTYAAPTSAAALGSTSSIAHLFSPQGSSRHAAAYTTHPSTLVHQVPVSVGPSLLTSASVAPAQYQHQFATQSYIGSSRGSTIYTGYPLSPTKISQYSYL
Chain of UniProt Q9H4B4 (whole entry, looked up): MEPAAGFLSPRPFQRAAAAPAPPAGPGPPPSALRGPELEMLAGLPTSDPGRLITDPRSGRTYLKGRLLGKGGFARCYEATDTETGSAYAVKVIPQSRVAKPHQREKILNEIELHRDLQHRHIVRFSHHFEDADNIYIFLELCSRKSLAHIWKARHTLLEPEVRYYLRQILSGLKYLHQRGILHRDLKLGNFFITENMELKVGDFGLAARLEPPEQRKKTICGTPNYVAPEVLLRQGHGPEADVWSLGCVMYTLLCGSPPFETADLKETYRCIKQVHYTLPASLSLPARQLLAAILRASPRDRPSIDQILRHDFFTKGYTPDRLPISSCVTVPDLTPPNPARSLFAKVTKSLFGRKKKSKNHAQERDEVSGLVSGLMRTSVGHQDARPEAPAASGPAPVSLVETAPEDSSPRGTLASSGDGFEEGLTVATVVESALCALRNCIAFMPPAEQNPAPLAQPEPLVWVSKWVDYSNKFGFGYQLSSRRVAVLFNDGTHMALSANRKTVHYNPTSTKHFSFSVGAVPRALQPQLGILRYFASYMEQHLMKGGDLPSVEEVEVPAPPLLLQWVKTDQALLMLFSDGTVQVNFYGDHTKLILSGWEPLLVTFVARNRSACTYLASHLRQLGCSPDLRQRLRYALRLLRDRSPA
Chain of UniProt Q12851 (whole entry, looked up): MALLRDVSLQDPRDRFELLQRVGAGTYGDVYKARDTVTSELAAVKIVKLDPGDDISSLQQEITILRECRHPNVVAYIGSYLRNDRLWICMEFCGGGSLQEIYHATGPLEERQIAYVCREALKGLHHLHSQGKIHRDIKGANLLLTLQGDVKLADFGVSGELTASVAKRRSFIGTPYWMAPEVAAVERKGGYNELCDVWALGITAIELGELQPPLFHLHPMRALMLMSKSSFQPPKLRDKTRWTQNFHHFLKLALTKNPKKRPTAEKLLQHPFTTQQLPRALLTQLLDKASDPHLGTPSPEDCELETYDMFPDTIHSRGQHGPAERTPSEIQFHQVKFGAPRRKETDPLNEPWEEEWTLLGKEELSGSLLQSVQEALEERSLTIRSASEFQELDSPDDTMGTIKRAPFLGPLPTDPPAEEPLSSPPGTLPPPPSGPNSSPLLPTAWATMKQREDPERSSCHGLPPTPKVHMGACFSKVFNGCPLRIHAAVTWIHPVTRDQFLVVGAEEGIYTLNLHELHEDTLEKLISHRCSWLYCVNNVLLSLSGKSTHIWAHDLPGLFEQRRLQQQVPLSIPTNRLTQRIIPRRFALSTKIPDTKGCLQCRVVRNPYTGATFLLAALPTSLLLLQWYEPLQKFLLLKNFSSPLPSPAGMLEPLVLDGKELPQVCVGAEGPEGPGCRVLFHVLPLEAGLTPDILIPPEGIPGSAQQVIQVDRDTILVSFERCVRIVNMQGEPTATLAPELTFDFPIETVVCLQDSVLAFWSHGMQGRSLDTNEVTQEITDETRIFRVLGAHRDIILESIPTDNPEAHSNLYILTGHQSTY
Chain of UniProt Q9NY57 (whole entry, looked up): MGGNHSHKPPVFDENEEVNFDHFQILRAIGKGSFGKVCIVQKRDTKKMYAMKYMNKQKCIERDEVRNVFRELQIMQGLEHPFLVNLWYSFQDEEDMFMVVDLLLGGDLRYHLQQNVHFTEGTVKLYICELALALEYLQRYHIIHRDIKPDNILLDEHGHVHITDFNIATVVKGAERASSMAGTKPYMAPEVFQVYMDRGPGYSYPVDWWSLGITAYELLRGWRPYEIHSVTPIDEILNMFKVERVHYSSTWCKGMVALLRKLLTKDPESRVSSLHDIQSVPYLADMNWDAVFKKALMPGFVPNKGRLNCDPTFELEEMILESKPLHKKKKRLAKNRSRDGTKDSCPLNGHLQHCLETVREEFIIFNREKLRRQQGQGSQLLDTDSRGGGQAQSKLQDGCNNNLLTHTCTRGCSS

Series 1
SMILES: O=C(NCc1ncc(C(F)(F)F)cc1Cl)c1ccc2c(c1)C1(CCS(=O)(=O)CC1)[C@H](C1CC1)N2S(=O)(=O)c1ccc(F)cc1
Method: competition with immobilised ligand
Tested at: 1 µM
target | observed | remaining binding
STK32B (Homo sapiens, UniProt Q9NY57) | cell-free assay | 100%
PLK3 (Homo sapiens, UniProt Q9H4B4) | cell-free assay | 92%
CSNK2A2 (Homo sapiens, UniProt P19784) | cell-free assay | 100%
HIPK1 (Homo sapiens, UniProt Q86Z02) | cell-free assay | 83%
SLK (Homo sapiens, UniProt Q9H2G2) | cell-free assay | 100%
NIM1K (Homo sapiens, UniProt Q8IY84) | cell-free assay | 83%
MAP3K4 (Homo sapiens, UniProt Q9Y6R4) | cell-free assay | 100%
PIK3CA (Homo sapiens, UniProt P42336, M1043I) | cell-free assay | 93%
RET (Homo sapiens, UniProt P07949, V804M) | cell-free assay | 100%
PRKD1 (Homo sapiens, UniProt Q15139) | cell-free assay | 93%
FLT3 (Homo sapiens, UniProt P36888) | cell-free assay | 100%
IRAK1 (Homo sapiens, UniProt P51617) | cell-free assay | 82%
MAP4K2 (Homo sapiens, UniProt Q12851) | cell-free assay | 100%
ACVR2B (Homo sapiens, UniProt Q13705) | binding | 90%

Series 2
Host: mouse
Sample: microsomes or S9
Tested at: 2 µM
Time: 0.5 h
SMILES | remaining compound
CC(Nc1ccc2cc[nH]c2n1)c1cn2ccsc2n1 (stereo not drawn) | 14.5%
O=C(CCCOc1ccc(F)cc1F)Nc1ccc2nc[nH]c(=O)c2c1 | 33.4%
COc1ccc(-n2ccnc2-c2nccn2[C@@H]2c3ccccc3C[C@@H]2O)cc1 | 0.439%
CC12CCC(C(=O)N(c3ccccn3)c3ccccn3)(OC1=O)C2(C)C (stereo not drawn) | 0.579%
Cc1ccc(NC(=O)c2cc3ccccc3n2C)c(OCC(=O)N(C)C)c1 | 15.2%
CC(=O)/C(=C1\NC(C)(C)Cc2cc(C)c(C)cc21)c1ccccc1 | 1.18%
CN(C)CCCNC(=O)c1c(OCC2CC2)cc(=O)n2c1CCCCC2 | > 99%
CN1C(=O)C2(NCCc3c2[nH]c2ccccc32)c2ccccc21 (stereo not drawn) | 30.6%
Cc1cc(C)cc(N(C(=O)Cc2cccs2)C(C(=O)NC2CCCC2)c2ccncc2)c1 (stereo not drawn) | 2.35%
Cn1c(=O)c2[nH]c(N3CCN(c4cccc(O)c4)CC3)nc2n(C)c1=O | 57.8%
Cc1c(CN2CCOCC2)c(=O)n(-c2ccccc2)n1C | > 100%

Series 3
Cell line: mouse MPNST tumor cells
Method: high-content immunofluorescence imaging
Item: nuclear SOX9
Tested at: 10 µM
Time: 12 h
Setting: mean of 2 replicates
Relative to: DMSO control
Reading: higher = more nuclear SOX9
SMILES | nuclear SOX9 intensity
Cc1cccc(-c2[nH]ncc2-c2ccc3ncccc3n2)n1 | 95.9 % of DMSO
C[C@]12C=CC(=O)C=C1CC[C@@H]1[C@@H]2[C@@H](O)C[C@@]2(C)[C@H]1CC[C@]2(O)C(=O)CO | 79.1 % of DMSO and 72.7 % of DMSO
CC(=O)Oc1cccc2c1C(=O)c1c(OC(C)=O)cc(C(=O)O)cc1C2=O | 104 % of DMSO and 111 % of DMSO
OCc1cc(C(O)CNCCCCCCOCCCCc2ccccc2)ccc1O (stereo not drawn) | 130 % of DMSO
Cc1cc(C)c(/C=C2\C(=O)Nc3ccccc32)[nH]1 | 137 % of DMSO
Cc1cc(C)c(S(=O)(=O)Nc2ccccc2C(F)(F)F)c(C)c1 | 109 % of DMSO
CCCNC(C)C(=O)Nc1c(C)csc1C(=O)OC (stereo not drawn) | 83.5 % of DMSO

Series 4
Target: Calcium/calmodulin-dependent protein kinase type II subunit alpha (CAMK2A, Homo sapiens, UniProt Q9UQM7)
Chain of UniProt Q9UQM7 (whole entry, looked up): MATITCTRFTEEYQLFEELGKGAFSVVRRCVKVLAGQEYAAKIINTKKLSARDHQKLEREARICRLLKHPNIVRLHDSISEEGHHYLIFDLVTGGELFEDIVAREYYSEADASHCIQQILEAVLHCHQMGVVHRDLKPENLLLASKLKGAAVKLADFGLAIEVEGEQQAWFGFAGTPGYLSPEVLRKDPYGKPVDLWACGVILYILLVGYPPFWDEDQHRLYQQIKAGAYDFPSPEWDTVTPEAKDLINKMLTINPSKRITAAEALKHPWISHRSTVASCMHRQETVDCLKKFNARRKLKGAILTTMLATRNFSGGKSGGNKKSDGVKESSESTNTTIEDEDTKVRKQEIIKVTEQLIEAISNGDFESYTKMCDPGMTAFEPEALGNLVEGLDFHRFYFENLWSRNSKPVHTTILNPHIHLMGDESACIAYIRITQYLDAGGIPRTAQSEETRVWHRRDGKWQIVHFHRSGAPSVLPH
Observed: enzyme activity
Action: inhibitor
Tested at: 10 µM
SMILES | inhibition [%]
COc1ccc(-c2oc3c(CC=C(C)C)c(O[C@@H]4O[C@H](CO)[C@@H](O)[C@H](O)[C@H]4O)cc(O)c3c(=O)c2O[C@@H]2O[C@@H](C)[C@H](O)[C@@H](O)[C@H]2O[C@@H]2OC[C@@H](O)[C@H](O)[C@H]2O)cc1 | 2
C[C@@H]1O[C@@H](O[C@H]2[C@H](O[C@H]3[C@H](O[C@H]4CC[C@]5(C)[C@H]6CC=C7[C@@H]8CC(C)(C)CC[C@]8(C(=O)O)CC[C@@]7(C)[C@]6(C)CC[C@H]5C4(C)C)OC[C@H](O)[C@@H]3O)O[C@H](CO)[C@@H](O)[C@@H]2O)[C@H](O)[C@H](O)[C@H]1O | -8
C=CCc1ccc(O)c(-c2ccc(O)c(CC=C)c2)c1 | 8
CCCCC/C=C\C/C=C\CCCCCCCC(=O)O[C@H]1CC[C@@]2(C)C(=CC[C@H]3[C@@H]4CC[C@H]([C@H](C)CCCC(C)C)[C@@]4(C)CC[C@@H]32)C1 | 20
C[C@@H]1CC[C@]2(C(=O)O[C@@H]3O[C@H](CO)[C@@H](O)[C@H](O)[C@H]3O)CC[C@]3(C)C(=CC[C@@H]4[C@@]5(C)CC[C@H](O)[C@@](C)(CO)[C@@H]5CC[C@]43C)[C@@H]2[C@]1(C)O | -24
CO[C@H]1c2cc(C(C)C)c(O)c(O)c2[C@@]23CCCC(C)(C)[C@@H]2[C@@H]1OC3=O | 10
O=C1c2ccc(O)cc2OCC1c1ccc(O)cc1 (stereo not drawn) | 9

For quick reference, copied from above (series 1):
target | observed | remaining binding
PIK3CA (Homo sapiens, UniProt P42336, M1043I) | cell-free assay | 93%
MAP4K2 (Homo sapiens, UniProt Q12851) | cell-free assay | 100%
PLK3 (Homo sapiens, UniProt Q9H4B4) | cell-free assay | 92%
IRAK1 (Homo sapiens, UniProt P51617) | cell-free assay | 82%
STK32B (Homo sapiens, UniProt Q9NY57) | cell-free assay | 100%
HIPK1 (Homo sapiens, UniProt Q86Z02) | cell-free assay | 83%
